Values quoted from earlier work that unrelated publications cite.
Compare with care: the assays were run in different laboratories. ± gives the spread as reported. Where no end group is shown, it is not given here. [ ]: non-standard residue; d: D form.
Gastrin-releasing peptide receptor: Gastrin-releasing peptide receptor (Rattus norvegicus, UniProt P52500)
Genome polyprotein NS3 helicase domain: Genome polyprotein, NS3 helicase domain (Hepatitis C virus genotype 1b, UniProt Q9WMX2)

COc1ccc(C2(CNC(=O)C(C)(Cc3c[nH]c4ccccc34)NC(=O)Nc3ccc([N+](=O)[O-])cc3)CCCCC2)nc1 (centres unmarked)
IC50 (Gastrin-releasing peptide receptor): 0.001 ± 0.0002 µM

CCc1cccc(CC)c1N(COC)C(=O)CCl
IC50 (estrogen receptor, alligator; binding; adult female oviduct tissue): 27.5 µM

[βAla]WLAYPDSVPYR (N-βAla; βAla = NCCC(=O)O)
IC50 (Ephrin type-A receptor 2, ectodomain with ephrin-A5 (Mus musculus, UniProt Q03145); EphA2-ephrin-A5 interaction, ELISA): 0.39 µM

AALEQTER
IC50 (DPP4 (Homo sapiens, UniProt P27487); enzyme activity, inhibitor; peptide): 600 µM

NC(=O)c1nc(Nc2ccccc2)sc1NC(=O)C1CCCCC1
IC50 (PIP5K1C (Homo sapiens, UniProt O60331); enzyme activity, inhibitor; 20 min preincubation): ~0.04 µM

OCCN1C[C@H](O)[C@@H](O)[C@H](O)[C@H]1CO
IC50 (alpha-glucosidase; enzyme activity, inhibitor): 2.43 µM

CCCCOc1ccc(CCC=C2SC(=O)N(CCN)C2=O)cc1
IC50 (SPHK2 (Homo sapiens, UniProt Q9NRA0); enzyme activity, inhibitor): 33.7 µM

C/C(=N\Cc1ccccc1)c1c(O)c2ccccc2oc1=O
IC50 (Myosin-7 (MYH7, Bos taurus, UniProt Q9BE39); cardiac myosin activity, inhibitor): 8 µM

Cc1ccc(Sc2cccc3[nH]c4nc(N)nc(N)c4c23)cc1
IC50 (PDGFRB (Homo sapiens, UniProt P09619); kinase activity, inhibitor): 40.3 ± 5.1 µM

COC(c1ccc(Cl)cc1)(c1ccc2c(c1)c(-c1cccc(Cl)c1C)cc(=O)n2C)c1cncn1C (centres unmarked)
IC50 (Protein farnesyltransferase (Rattus norvegicus, UniProt Q02293+Q04631); mammalian enzyme): > 5 µM

Cc1ccc2nc(-c3ccc4nc(-c5ccc(NC(=O)c6cccc(C(F)(F)F)c6F)cc5)sc4c3)sc2c1S(=O)(=O)O
IC50 (Genome polyprotein NS3 helicase domain; RNA unwinding): 11.9 ± 4 µM

O=C(O)c1nn(Cc2ccc(Cl)cc2Cl)c2ccccc12
IC50 (respiratory complex II; succinate-ubiquinone reductase activity, inhibitor): ~300 µM

Cc1ccc(C2Nc3ccccc3-n3c(-c4ccccc4)c4c(=O)n(C)c(=O)n(C)c4c32)o1 (centres unmarked)
IC50 (CFTR (Homo sapiens, UniProt P13569); chloride conductance, inhibitor): ~0.09 µM

CC(ONC(=O)c1cc(C(F)(F)F)cc(C(F)(F)F)c1)C(=O)Nc1ccc(Cl)cc1 (centres unmarked)
IC50 (SRE.L luciferase reporter (Rho pathway); reporter gene, inhibitor): < 1 µM

Nc1nc2c(ncn2[C@@H]2O[C@H](COP(=O)(O)OP(=O)(O)OP(=O)(O)O)[C@@H](O)[C@H]2O)c(=O)[nH]1
IC50 (GLUD1 (Homo sapiens, UniProt P00367, H507Y); enzyme activity, allosteric inhibitor; mutant enzyme, reductive amination): 210 µM

COc1ccc2scc(CCNC(=O)CBr)c2c1
IC50 (aralkylamine N-acetyltransferase human; enzyme activity, inhibitor; thirty minutes): 0.61 µM

CC(C)C[C@H](NC(=O)[C@H](CC(C)C)NC(=O)[C@@H](Cc1c[nH]c2ccccc12)NC(=O)[C@H](Cc1ccccc1)NC(=O)[C@@H](Cc1c[nH]c2ccccc12)NC(=O)[C@H](CCC(N)=O)NC(=O)[C@H](CCC(N)=O)NC(=O)[C@@H]1CCCN1C(=O)[C@H](CCCCN)NC(=O)[C@@H]1CCCN1C(=O)[C@H](N)CCCN=C(N)N)C(N)=O
IC50 (Gastrin-releasing peptide receptor; binding; literature species comparison): > 10 µM

O=C(c1ccc(P(=O)(O)O)cc1O)c1[nH]c(Cl)c(Cl)c1-n1c(C(=O)c2ccc(P(=O)(O)O)cc2O)cc(Cl)c1Cl
IC50 (Bcl-2-like protein 1, with Bim (BCL2L1, Homo sapiens, UniProt Q07817); inhibitor, ELISA): 27.3 ± 7.2 µM

COc1ccccc1N1CCN(CC(O)c2cn(S(=O)(=O)c3cccc4ccccc34)c3ccccc23)CC1 (centres unmarked)
IC50 (5-HT6 receptor; antagonist): 0.032 µM

OC[C@@H](O)[C@@H]1[C@H](O)[C@H](O)CN1Cc1ccccc1
IC50 (human lysosomal α-mannosidase; enzyme activity, inhibitor): 1500 µM

CN1C(=O)c2cc(C(N)=O)nc3c(N)c(Cl)c(N)c1c23
IC50 (NQO2 (Homo sapiens, UniProt P16083); inhibitor): 0.022 µM

Cc1ccc2nc(-c3ccc4nc(-c5ccc(NC(=O)c6ccc(N)cc6)cc5)sc4c3)sc2c1S(=O)(=O)O
IC50 (Genome polyprotein NS3 helicase domain; RNA unwinding): 7 ± 1 µM

Cc1cc(/C=C/C#N)cc(C)c1Nc1ccnc(Nc2ccc(C#N)cc2)n1
IC50 (Gag-Pol polyprotein, reverse transcriptase (gag-pol, Human immunodeficiency virus 1, UniProt P03366); reverse transcriptase activity; wild type): 0.02 µM

O=C(/C=C/c1ccco1)N1CCc2ccccc21
IC50 (Nicotinic acetylcholine receptor alpha9/alpha10 (Rattus norvegicus, UniProt P43144+Q9JLB5); inhibitor): 39 µM

CCc1cc(CC)n2nc(-c3ccc(OCCF)cc3)c(CC(=O)N(CC)CC)c2n1
IC50 (Tspo (Rattus norvegicus, UniProt P16257); binding, radioligand displacement; C6 glioma cell lysate; with: [3H]PK 11195): 0.0003 µM

O=C(O)C(O)(Cc1cccnc1)P(=O)(O)O (centres unmarked)
IC50 (geranylgeranyltransferase II; enzyme activity, inhibitor): ~600 µM

COc1c2occc2c(OC)c2c(=O)cc(C)oc12
IC50 (Cytochrome P450 1A1 (CYP1A1, Homo sapiens, UniProt P04798); HEK293 overexpressing CYP1A1): 4.02 µM

NS(=O)(=O)c1ccc(-n2nc(C(F)(F)F)cc2-c2ccc(F)cc2F)cc1
IC50 (COX-1 (rat seminal vesicles); enzyme activity, inhibitor): 134 µM

O=C(OC[C@H]1O[C@@H](OC(=O)c2cc(O)c(O)c(OC(=O)c3cc(O)c(O)c(O)c3)c2)[C@H](OC(=O)c2cc(O)c(O)c(OC(=O)c3cc(O)c(O)c(O)c3)c2)[C@@H](OC(=O)c2cc(O)c(O)c(OC(=O)c3cc(O)c(O)c(O)c3)c2)[C@@H]1OC(=O)c1cc(O)c(O)c(OC(=O)c2cc(O)c(O)c(O)c2)c1)c1cc(O)c(O)c(OC(=O)c2cc(O)c(O)c(O)c2)c1
IC50 (α-glucosidase; mixed-type inhibitor): 1.31 µM

C=C(C)[C@@H]1CC[C@]2(NCCN3CCS(=O)(=O)CC3)CC[C@]3(C)[C@H](CC[C@@H]4[C@@]5(C)CC=C(C6=CC[C@@](CF)(C(=O)O)CC6)C(C)(C)[C@@H]5CC[C@]43C)[C@@H]12
IC50 (UGT1A1; enzyme activity, inhibitor): 3.9 µM

NC(=S)NN=C(c1ccccc1)c1ccccc1
IC50 (Procathepsin L (CTSL, Homo sapiens, UniProt P07711); inhibitor): > 10 µM

Nc1nc(N)c2c(n1)[nH]c1cccc(Sc3ccccc3)c12
IC50 (DHFR (Homo sapiens, UniProt P00374); inhibitor): > 33 µM

Some of these lines once more:
Cc1ccc(Sc2cccc3[nH]c4nc(N)nc(N)c4c23)cc1
IC50 (PDGFRB (Homo sapiens, UniProt P09619); kinase activity, inhibitor): 40.3 ± 5.1 µM

OCCN1C[C@H](O)[C@@H](O)[C@H](O)[C@H]1CO
IC50 (alpha-glucosidase; enzyme activity, inhibitor): 2.43 µM

C/C(=N\Cc1ccccc1)c1c(O)c2ccccc2oc1=O
IC50 (Myosin-7 (MYH7, Bos taurus, UniProt Q9BE39); cardiac myosin activity, inhibitor): 8 µM
